{"data": "Measured values gathered from unrelated publications", "note": "Every numbered part comes from another study and shows a few of its results, in no order. Several values in a cell are separate wells, animals, samples, runs or records.", "UniProt P42685, sequence (whole entry, looked up)": "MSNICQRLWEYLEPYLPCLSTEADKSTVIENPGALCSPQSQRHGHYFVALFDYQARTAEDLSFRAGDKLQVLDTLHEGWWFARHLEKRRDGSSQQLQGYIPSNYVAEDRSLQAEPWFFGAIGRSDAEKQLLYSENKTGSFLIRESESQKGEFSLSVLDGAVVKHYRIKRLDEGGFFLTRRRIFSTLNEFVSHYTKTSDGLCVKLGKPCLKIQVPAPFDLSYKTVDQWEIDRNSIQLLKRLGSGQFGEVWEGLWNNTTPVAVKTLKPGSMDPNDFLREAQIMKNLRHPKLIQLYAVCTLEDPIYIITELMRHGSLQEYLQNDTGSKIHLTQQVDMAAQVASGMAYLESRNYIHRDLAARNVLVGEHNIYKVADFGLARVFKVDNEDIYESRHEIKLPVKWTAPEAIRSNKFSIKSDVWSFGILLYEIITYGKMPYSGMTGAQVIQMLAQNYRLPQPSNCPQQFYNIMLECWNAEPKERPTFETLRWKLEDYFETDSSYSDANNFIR", "UniProt Q92772, sequence (whole entry, looked up)": "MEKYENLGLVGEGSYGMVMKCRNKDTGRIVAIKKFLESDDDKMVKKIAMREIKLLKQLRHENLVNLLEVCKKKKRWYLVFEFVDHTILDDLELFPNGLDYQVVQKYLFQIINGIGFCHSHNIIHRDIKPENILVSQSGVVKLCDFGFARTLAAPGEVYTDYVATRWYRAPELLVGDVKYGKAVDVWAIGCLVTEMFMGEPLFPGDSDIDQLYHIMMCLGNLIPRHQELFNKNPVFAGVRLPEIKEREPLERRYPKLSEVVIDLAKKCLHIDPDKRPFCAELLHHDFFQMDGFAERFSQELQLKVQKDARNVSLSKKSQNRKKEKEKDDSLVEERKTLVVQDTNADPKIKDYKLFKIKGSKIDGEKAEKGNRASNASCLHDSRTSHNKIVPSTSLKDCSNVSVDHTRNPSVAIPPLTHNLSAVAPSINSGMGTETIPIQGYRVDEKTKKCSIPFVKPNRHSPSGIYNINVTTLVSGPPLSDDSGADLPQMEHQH", "UniProt P54764, sequence (whole entry, looked up)": "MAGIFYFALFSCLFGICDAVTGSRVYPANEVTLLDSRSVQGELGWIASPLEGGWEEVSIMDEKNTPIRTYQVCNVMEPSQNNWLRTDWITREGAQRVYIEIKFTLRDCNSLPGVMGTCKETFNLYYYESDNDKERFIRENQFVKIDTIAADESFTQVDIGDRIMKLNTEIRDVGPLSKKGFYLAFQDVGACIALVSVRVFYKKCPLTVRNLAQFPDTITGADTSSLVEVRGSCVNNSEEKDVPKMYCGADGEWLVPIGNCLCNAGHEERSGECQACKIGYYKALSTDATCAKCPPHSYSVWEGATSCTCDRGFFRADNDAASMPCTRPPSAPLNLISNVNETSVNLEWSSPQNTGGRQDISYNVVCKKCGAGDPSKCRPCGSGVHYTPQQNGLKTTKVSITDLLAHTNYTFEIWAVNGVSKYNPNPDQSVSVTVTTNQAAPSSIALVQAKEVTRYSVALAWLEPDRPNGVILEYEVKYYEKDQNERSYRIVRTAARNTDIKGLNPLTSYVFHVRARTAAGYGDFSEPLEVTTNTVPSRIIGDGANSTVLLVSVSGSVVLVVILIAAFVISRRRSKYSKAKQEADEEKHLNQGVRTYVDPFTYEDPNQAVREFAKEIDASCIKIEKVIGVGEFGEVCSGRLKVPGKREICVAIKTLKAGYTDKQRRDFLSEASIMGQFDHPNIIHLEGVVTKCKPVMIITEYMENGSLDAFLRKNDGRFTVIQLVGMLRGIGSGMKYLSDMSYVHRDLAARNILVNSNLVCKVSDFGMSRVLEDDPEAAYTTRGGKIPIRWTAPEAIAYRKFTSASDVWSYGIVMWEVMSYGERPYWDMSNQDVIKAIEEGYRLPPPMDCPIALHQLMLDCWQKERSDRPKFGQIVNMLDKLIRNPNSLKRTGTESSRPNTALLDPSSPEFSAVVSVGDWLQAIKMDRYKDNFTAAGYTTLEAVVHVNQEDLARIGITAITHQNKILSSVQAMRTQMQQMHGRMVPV", "UniProt Q07002, sequence (whole entry, looked up)": "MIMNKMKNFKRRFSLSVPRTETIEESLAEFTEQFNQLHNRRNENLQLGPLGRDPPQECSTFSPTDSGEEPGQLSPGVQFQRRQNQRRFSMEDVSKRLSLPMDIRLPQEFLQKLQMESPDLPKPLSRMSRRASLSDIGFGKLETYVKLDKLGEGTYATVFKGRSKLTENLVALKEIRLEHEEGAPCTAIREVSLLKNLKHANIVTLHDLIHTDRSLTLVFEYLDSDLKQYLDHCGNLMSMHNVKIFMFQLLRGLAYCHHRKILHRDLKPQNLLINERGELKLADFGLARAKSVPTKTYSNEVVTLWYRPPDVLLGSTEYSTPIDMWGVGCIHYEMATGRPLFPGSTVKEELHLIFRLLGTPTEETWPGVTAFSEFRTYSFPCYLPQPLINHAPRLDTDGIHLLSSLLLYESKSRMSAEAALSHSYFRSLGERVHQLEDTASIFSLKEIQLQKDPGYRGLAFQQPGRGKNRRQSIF", "UniProt Q9NY57, sequence (whole entry, looked up)": "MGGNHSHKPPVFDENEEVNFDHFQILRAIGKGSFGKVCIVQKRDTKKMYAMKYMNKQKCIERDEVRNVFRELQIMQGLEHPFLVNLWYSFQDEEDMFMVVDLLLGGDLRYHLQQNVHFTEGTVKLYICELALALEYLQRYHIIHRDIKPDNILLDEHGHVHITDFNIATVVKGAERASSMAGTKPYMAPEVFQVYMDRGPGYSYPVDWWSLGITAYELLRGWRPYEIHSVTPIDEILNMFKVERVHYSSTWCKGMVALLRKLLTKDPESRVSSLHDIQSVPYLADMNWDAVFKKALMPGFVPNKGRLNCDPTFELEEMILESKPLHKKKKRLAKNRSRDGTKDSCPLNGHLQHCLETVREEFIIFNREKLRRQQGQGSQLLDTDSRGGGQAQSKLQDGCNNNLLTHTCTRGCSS", "UniProt P22607, sequence (whole entry, looked up)": "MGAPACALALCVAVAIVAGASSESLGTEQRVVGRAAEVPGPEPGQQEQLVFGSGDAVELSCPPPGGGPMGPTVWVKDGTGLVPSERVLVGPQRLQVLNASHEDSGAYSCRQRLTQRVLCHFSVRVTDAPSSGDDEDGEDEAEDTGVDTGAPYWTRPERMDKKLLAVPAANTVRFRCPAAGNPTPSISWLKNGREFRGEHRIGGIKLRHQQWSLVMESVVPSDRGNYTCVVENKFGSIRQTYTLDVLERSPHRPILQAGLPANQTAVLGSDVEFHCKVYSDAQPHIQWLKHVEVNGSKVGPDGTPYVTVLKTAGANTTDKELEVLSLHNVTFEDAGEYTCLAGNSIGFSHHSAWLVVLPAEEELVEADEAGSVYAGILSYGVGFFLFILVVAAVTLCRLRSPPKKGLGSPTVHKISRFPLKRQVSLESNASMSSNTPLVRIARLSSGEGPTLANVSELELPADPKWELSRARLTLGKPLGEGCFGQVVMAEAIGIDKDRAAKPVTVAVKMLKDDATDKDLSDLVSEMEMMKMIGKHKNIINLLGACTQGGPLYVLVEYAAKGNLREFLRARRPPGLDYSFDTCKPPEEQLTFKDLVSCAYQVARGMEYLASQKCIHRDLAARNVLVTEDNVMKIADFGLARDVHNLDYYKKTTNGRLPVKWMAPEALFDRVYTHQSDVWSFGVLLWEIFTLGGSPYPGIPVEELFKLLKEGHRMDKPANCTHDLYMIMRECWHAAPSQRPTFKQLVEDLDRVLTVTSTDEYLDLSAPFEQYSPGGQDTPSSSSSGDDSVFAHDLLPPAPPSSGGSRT", "UniProt Q9H2G2, sequence (whole entry, looked up)": "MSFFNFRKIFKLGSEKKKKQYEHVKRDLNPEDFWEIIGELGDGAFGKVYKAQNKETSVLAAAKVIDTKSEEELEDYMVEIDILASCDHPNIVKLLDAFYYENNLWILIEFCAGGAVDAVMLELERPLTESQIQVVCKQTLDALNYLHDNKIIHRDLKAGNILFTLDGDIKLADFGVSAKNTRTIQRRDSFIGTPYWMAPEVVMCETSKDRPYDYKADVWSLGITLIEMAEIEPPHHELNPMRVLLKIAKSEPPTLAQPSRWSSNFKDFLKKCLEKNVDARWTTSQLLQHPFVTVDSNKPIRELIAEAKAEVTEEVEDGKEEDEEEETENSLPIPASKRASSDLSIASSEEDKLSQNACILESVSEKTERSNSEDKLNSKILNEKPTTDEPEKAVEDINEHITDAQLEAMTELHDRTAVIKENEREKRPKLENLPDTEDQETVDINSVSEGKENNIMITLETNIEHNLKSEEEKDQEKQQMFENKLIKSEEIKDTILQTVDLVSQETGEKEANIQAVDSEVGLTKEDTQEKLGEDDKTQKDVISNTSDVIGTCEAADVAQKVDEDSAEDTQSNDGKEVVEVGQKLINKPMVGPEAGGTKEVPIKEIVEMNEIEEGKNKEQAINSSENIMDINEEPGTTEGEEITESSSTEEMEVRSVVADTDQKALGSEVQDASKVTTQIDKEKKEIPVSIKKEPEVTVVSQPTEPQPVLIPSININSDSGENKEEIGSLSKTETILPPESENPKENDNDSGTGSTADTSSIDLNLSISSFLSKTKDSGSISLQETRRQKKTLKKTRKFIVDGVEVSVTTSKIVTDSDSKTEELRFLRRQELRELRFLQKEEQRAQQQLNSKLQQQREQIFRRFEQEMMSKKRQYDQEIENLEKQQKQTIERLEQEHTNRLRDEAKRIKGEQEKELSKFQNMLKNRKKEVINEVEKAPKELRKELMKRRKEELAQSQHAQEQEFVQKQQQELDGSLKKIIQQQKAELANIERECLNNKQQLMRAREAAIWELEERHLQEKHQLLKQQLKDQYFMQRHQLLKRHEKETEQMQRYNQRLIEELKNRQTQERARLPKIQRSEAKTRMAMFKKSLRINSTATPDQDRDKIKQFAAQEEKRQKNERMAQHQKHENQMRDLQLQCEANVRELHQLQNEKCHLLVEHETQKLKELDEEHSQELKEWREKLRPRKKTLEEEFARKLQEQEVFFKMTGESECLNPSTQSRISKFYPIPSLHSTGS"}
{"data": "Block 1", "target": "RNA binding protein fox-1 homolog 2, RRM domain, GST-SBP tag (RBFOX2, Homo sapiens, UniProt O43251-10, residues 100-194)", "technique": "RNA Bind-n-Seq", "form": "RNA", "matrix": "in vitro", "tested at": "365 nM", "setting": "natural RNA segment, single round, ends assumed", "reference": "no-protein control", "reading": "higher = stronger binding", "constant ends, left off below": "GGGAGUUCUACAGUCCGACGAUC … UGGAAUUCUCGGGUGCCAA"}
{"Sequence": "GCCUUGGGUGUUGGCCACAGGGUCAAGGGACUCUGGCCUCAGCCCAGAAGUGAGGGGAAGCUAUACAGAGCAGCUGUGGGAACCCCAGGGGCUUCCCUACCUCAGGCAGG", "RBNS enrichment (R)": 0.47}
{"Sequence": "UGUCAUGCUGGGCCCUUCAUUUGAUCUGGGACAUAGCAUCACAGCAGUCAGGGCACCUGGAUUGUUCUGUUAUCGAUAUUGUUUCUUGUAGCGGCCUGUUGUGCAUGCCA", "RBNS enrichment (R)": 7.99}
{"Sequence": "UGUUUGUUUGUUUGUUUCCUUAAUCUGGCUCAUUUGAAAUUUCUUCUCCCUCUCAACCAUCCCACUAAGUUAUAGCCAAGAAGGGAAGGAGACACGGGGAUUUGGGGUUC", "RBNS enrichment (R)": 0.762}
{"Sequence": "UCCUAGGAACUUUUAAGACUUCUUGGUACCUAUGAACAUAGGUCCUCCCCUCACCCCAACUCUAGGUUUCCAGGCCUCACAGCCAAGCUGAAGCUUGGAGAAAACUCUGC", "RBNS enrichment (R)": 0.653}
{"Sequence": "AAGGGAUUGGCACCAAGACCAGGCAGCCCUUGAUUUCCUCGCUCUCUGGAGCUAGUCAGUGUCCUAGACCACCAGGACCUCUACUCAUUCAUGAGUUAGUUAUGCAGCAA", "RBNS enrichment (R)": 0.38}
{"Sequence": "UGACAAGGGGACGGGGUCUGUGAGAGUCAAUUCAGGGGAAAGAUACAAGAUUGAUUUGUAAAACCCUUGAAAUGUAGAUUUCUUGUAGAUGUAUCUUCACGUUGUAAAUA", "RBNS enrichment (R)": 0.623}
{"Sequence": "UCCUCCUUCCGGGGAAGGAUUUUGCAGUUCUUUGGCUGAAAGGAAGCUGUGCGUGUGUGUGUGUGUAUGUGUGUGUGUGUAUGUGUAUCUCACACUCAUGCAUUGUCCUC", "RBNS enrichment (R)": 2.31}
{"Sequence": "UACAUAUAUAUAUAUGUAUAAAUAUAAGAAUAUCCCAGCGGCACUUUAUACUGUUCACUGUACAAAAGCUUACAGUUUUCCACAAGGACUUUAAUAACUAGCUGGGGAAA", "RBNS enrichment (R)": 0.454}
{"data": "Block 2", "technique": "PRP chromatography estimate", "matrix": "1,9-decadiene/PBS", "pH": "7.4"}
{"SMILES": "CC(C)C[C@@H]1NC(=O)[C@H](C)NC(=O)[C@H](CC(C)C)NC(=O)[C@@H](CCC(=O)N2CCCC2)NC(=O)[C@H](CC(C)C)NC(=O)[C@@H](CC(C)C)NC(=O)[C@H](CC(C)C)NC1=O", "logD": -0.472}
{"SMILES": "CC(C)C[C@@H]1NC(=O)[C@H](C)NC(=O)[C@H](Cc2cscn2)NC(=O)[C@H](CCC(=O)N2CCCC2)NC(=O)[C@H](CC(C)C)NC(=O)[C@H](CC(C)C)NC(=O)[C@H](CC(C)C)NC1=O", "logD": -1.44}
{"SMILES": "CC(C)C[C@@H]1NC(=O)[C@H](Cc2cscn2)NC(=O)[C@H](CCC(=O)N2CCCC2)NC(=O)[C@H](CC(C)C)NC(=O)[C@@H](Cc2cscn2)NC(=O)[C@H](CC(C)C)NC(=O)[C@@H](CC(C)C)NC1=O", "logD": -0.904}
{"data": "Block 3", "SMILES": "CN(C(=O)c1ccccc1)c1cc(N(C)c2ccc3c(c2)CCc2ccc(C(=O)NCCN4CCOCC4)cc2C3=O)ccc1F", "effect on": "cell-free assay", "technique": "competition with immobilised ligand", "tested at": "1 µM"}
{"target": "Cyclin-dependent kinase-like 2 (CDKL2, Homo sapiens, UniProt Q92772)", "remaining binding": "93%"}
{"target": "Serine/threonine-protein kinase MARK1 (MARK1, Homo sapiens, UniProt Q9P0L2)", "remaining binding": "81%"}
{"target": "Cyclin-dependent kinase 18 (CDK18, Homo sapiens, UniProt Q07002)", "remaining binding": "100%"}
{"target": "Ephrin type-A receptor 4 (EPHA4, Homo sapiens, UniProt P54764)", "remaining binding": "92%"}
{"target": "Tyrosine-protein kinase Fgr (FGR, Homo sapiens, UniProt P09769)", "remaining binding": "93%"}
{"target": "STE20-like serine/threonine-protein kinase (SLK, Homo sapiens, UniProt Q9H2G2)", "remaining binding": "98%"}
{"target": "Activin receptor type-1-like (ACVRL1, Homo sapiens, UniProt P37023)", "remaining binding": "96%"}
{"target": "5'-AMP-activated protein kinase catalytic subunit alpha-1 (PRKAA1, Homo sapiens, UniProt Q13131)", "remaining binding": "100%"}
{"target": "Serine/threonine-protein kinase MAK (MAK, Homo sapiens, UniProt P20794)", "remaining binding": "100%"}
{"target": "Inhibitor of nuclear factor kappa-B kinase subunit beta (IKBKB, Homo sapiens, UniProt O14920)", "remaining binding": "82%"}
{"target": "Tyrosine-protein kinase FRK (FRK, Homo sapiens, UniProt P42685)", "remaining binding": "72%"}
{"target": "Leucine-rich repeat serine/threonine-protein kinase 2 (LRRK2, Homo sapiens, UniProt Q5S007)", "remaining binding": "80%"}
{"target": "Muscle, skeletal receptor tyrosine-protein kinase (MUSK, Homo sapiens, UniProt O15146)", "remaining binding": "100%"}
{"target": "Serine/threonine-protein kinase 32B (STK32B, Homo sapiens, UniProt Q9NY57)", "remaining binding": "79%"}
{"target": "Mitogen-activated protein kinase 1 (MAPK1, Homo sapiens, UniProt P28482)", "remaining binding": "92%"}
{"target": "Fibroblast growth factor receptor 3 (FGFR3, Homo sapiens, UniProt P22607)", "remaining binding": "93%"}
{"data": "Block 4", "species": "mouse", "matrix": "microsomes or S9", "tested at": "2 µM", "time": "0.5 h"}
{"Compound": "CN1C[C@H](NC(=O)CC2=C(c3ccccc3)CCC2=O)C[C@H]1C(=O)O", "remaining compound": "94.3%"}
{"Compound": "COc1ccc(C2CC(O)=Nc3c(C(=O)O)cn(-c4cc(F)cc(F)c4)c32)c(OC)c1OC (stereo not shown)", "remaining compound": "96%"}
{"Compound": "Cc1cc(C)cc(N/C(N)=N/Cc2nc(C(C)(C)C)cs2)c1", "remaining compound": "0.168%"}
{"data": "Further values, each from its own experiment"}
{"Structure (SMILES)": "O=C1c2cccc3c2[C@H](CCC3)CN1[C@@H]1CN2CCC1CC2", "tested on": "Sarcocystis neurona", "assay": "parasite growth", "conditions": "10 µM", "endpoint": "inhibition", "value": "2.2%"}
{"Structure (SMILES)": "CN1CC[C@H](c2c(O)cc(O)c3c(=O)cc(-c4ccccc4Cl)oc23)[C@H](O)C1", "tested on": "HuT78", "assay": "qPCR, refers to: RARA", "conditions": "concentration not given, 24 h, unit not given", "how to read": "reference: untreated control", "endpoint": "mRNA level", "value": "1.12 and 1.09 and 0.95"}
{"Structure (SMILES)": "C[C@@H](O)[C@H]1C(=O)N2C(C(=O)O)=C(S[C@@H]3CN[C@H](C(=O)N(C)C)C3)[C@H](C)[C@H]12", "tested on": "Sarcocystis neurona", "assay": "parasite growth", "conditions": "10 µM", "endpoint": "inhibition", "value": "-20.1%"}
{"Structure (SMILES)": "Nc1nc(O)c2ncn(CCC(CO)CO)c2n1", "tested on": "mouse MPNST tumor cells", "assay": "high-content immunofluorescence imaging, refers to: nuclear SOX9", "conditions": "10 µM, 12 h, mean of 2 replicates", "how to read": "reference: DMSO control, higher = more nuclear SOX9", "endpoint": "nuclear SOX9 intensity", "value": "93.2 % of DMSO"}
